Published values of several laboratories.
Every numbered part comes from another study and shows a few of its results, in no order.

Set 1
Target: Hepatocyte nuclear factor 3-alpha (Foxa1, Mus musculus, UniProt P35582, residues 1-468, full length assumed)
Method: EMSA with sequencing
Molecule type: double-stranded DNA, one strand shown
Matrix: in vitro
Tested at: 10 and 20 nM
Setting: whole designed probe, mean of two concentrations, ends assumed
Relative to: negative control set to 0
Reading: higher = stronger binding
Constant ends, left off below: GTGAGCGGTGCCCATTGATGGGGAAC … TTTCACTGGGATCGTGGGGAC
Residues (chain): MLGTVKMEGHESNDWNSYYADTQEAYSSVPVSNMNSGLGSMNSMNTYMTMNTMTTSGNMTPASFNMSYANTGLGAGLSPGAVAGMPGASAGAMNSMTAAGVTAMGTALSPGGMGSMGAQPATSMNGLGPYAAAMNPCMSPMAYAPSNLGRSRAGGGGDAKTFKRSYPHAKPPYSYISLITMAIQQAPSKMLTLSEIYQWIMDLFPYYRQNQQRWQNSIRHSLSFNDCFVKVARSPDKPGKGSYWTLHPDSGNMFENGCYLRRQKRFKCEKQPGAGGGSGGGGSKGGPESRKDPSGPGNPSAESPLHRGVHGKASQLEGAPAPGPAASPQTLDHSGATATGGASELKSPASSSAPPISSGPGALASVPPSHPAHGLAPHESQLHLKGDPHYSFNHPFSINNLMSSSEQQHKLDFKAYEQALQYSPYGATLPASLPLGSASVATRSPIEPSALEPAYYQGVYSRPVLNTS
Sequence	normalised bound fraction [ratio]
GTGTGCTAGCCTGTGAGTTTTTCTCTCCAACTAGCCTGGGTACTCAGGAAAGTGAGATCAACTTCTGGGTTTGGGTGTAGCGGCCTGACCTGTGCAAATAGGGGAGACAGTTGACATACAGATGAAAGGGGAGATGGGAAGCCATACAGAGGAAGGAGAAGATCAGGAACCAGAGATAAGATAATTCTGTAAA	0.263
CTGAACTCTGTCTTAAATTAGAAGATGTTTCAGATGTCAACAATGTGACTAGGCAGTCTTATGAAACATTAACCATCTCTTTGGTTGGTTGCTTGTGTACACACAAATATATTCATTCTTGGAATGCCTTGGGCCATTAAATACGTCTAAAGGTTTGATGCTGGGAAAACATGATGAGGGCCAAGGGGTCTTG	0.331
TGATTTTTAAAGATTTTATGATTCTGATACCAATATTCAAAAGTATATTATTTAATATATTTGTCTATGTCACTTGGCAAATACTATATTCATGTTTACACAGATCAATTTACATATGCATCTTTATATTTTTATCCCATCATTATTACTAATATAATTGTGCCAGTTGTGCCTACAGTTATTTTCTTGTATG	0.45
GCTATGTTGCCCAGGCTGGTCTTGAACTCCTGGCCTCAGGCTGTCCTCCTGCTTTGGCCTCTCAAAGTGCTGTGATTACAGGCATGAGCCACTGTAATCTCAGTATTTAAATAAGCAATCCTCACACTGGGAGGGAGTGAAGGATGCCCCTCTTTGCCCTGGAAGGTACATCAGAAAAAGCCTACCAGTGGGC	0.0926
CACCGCGCTCGCACGGCTTTGTCCGTGCTACAAAGCAGCCTGTTAAACTATTGGAACTAATGCGCCGCAGCTGCGCGAGTGACTTCTGCTGCTTATGTACATAAAAAGTCCTGTAAGGGGGAGGGCTCCATCAGATGCCTGCTGCTGGGTTGTTTGGCTAGTCTTTCCATTTGCTTATTCCTGAATCCAAAGG	0.339

Set 2
Target: Fragile X messenger ribonucleoprotein 1, C-terminal low-complexity region (Fmr1, Mus musculus, UniProt P35922)
Method: RNA Bind-n-Seq
Molecule type: RNA
Matrix: in vitro
Tested at: 200 nM
Setting: whole 134-nt RNA, ends assumed
With: 150 mM KCl
Relative to: input library
Reading: higher = stronger binding
Constant ends, left off below: GGGAGUUCUACAGUCCGACGAUC … UGGAAUUCUCGGGUGUCAAGG
Sequence	log2 enrichment
UGGCCCUGGUGGCAUGCGGGGAGGAAGAGGUGGCCUCAUGGAUCGUGGUGGUCCCGGUGGAAUGUGCAGAGGUGGCCGUGGUGGAGACAG	0.366
CCUGUGCUACACAUCGUAUGUACCGAAUCGGCCCCCCGGGGCCCCCCGGGCCCCCCGGGGAAAGUAUUAUGUUACGCCGUUCGGAUCUGC	-0.802
ACCAUGCAGGUGGGCAUCUUUGGGAAGUGGGGCAAGGGGGGGAUAGGGAGGGGGGUAACACUUUGGGAGCAGGUGGUCCCAGGUCGUUUC	0.701
AAGUCCUGUGCUACACAUCGUAUGUACCGAAUCAAAUUUUUAAACCCAAAUUUAAAAAAGUAUUAUGUUACGCCGUUCGGAUCUGCACUU	-0.216
AAGUCCUGUGCUACACAUCGUAUGUACCGAAUCGGUUUUGGGGUUUUGGGUUUUGGAAAGUAUUAUGUUACGCCGUUCGGAUCUGCACUU	-0.366
ACCAUGCAGGUGGGCAUCUUUGGGAAGUGGGGCAAGGGGGGGAUAGGGAGGGGGGUAACACUUUGGGAACAGGUGGUCCCAGGUUGUUUC	0.635
AGUCCUGUGCUACACAUCGUAUGUACCGAAUCAAAUUUAAACCCAAAUUUUUUUAAAAAAGUAUUAUGUUACGCCGUUCGGAUCUGCACU	0.0959
CUGUGCUACACAUCGUAUGUACCGAAUCGGGGAAAGGGGUUUUUUUGGGGUUUUUUUGGGGAAAGUAUUAUGUUACGCCGUUCGGAUCUG	-0.0435
CUCAAGUCCUGUGCUACACAUCGUAUGUACCGAAUCGGGAAGGGGAAGGAAGGGAAAGUAUUAUGUUACGCCGUUCGGAUCUGCACUUCC	-0.0802

Set 3
Target: Interferon regulatory factor 5, full length, phosphomimetic (IRF5, Homo sapiens, UniProt Q13568-2, residues 1-514, S451D/S453D/S456D/S462D)
Method: protein-binding microarray
Molecule type: double-stranded DNA, one strand shown
Matrix: in vitro
Tested at: 940 nM top
Setting: 60-bp whole probe
With: salmon DNA 0.4 mg/ml
Relative to: random background probes
Reading: higher = stronger binding
Constant ends, left off below: GCCTAGCAC … GTCTTGATTCGCTTGACGCTGCTG
Sequence	fitted relative affinity
GAAGGTCTCCTTCTCCTGACGTGCTAG	-0.0754 z-score
GACGAGCTCAGTTTCGAGACGTGCTAG	3.99 z-score
GATGAACTGAGTATCGAGACGTGCTAG	1.56 z-score
TTACGTATCGGTCTCGGTTAGTGCTAG	8.31 z-score
CACTTTGGATAACCAAAAACGTGCTAG	-0.188 z-score
GGTGCTGTTTACATAGTTCTGTGCTAG	-0.192 z-score
TTAGGTAACGGGACTGGGTTAGTGCTA	-0.242 z-score
TTAGAACGGGGGTATCGATTAGTGCTA	6.92 z-score
TTAGGTATCCTCCTCCTTTAGTGCTAG	0.589 z-score
TCATGTTTGGCCCTGAAACTGTGCTAG	-0.104 z-score
TTAGGTTACGGACTGGGTTAGTGCTAG	-0.399 z-score
TTAGGTATCGGGTTCCGGTTAGTGCTA	5.92 z-score
TTAGGTTTCCTACCGCTTTAGTGCTAG	0.523 z-score
TTAGATTTCAGATTGGATTAGTGCTAG	0.0745 z-score
TTAGATTTCACTTCCGATTAGTGCTAG	1.97 z-score
TCAAGTAGCTTTCTGAGACTGTGCTAG	0.0331 z-score
TTAGATTTCAGACTGGTTTAGTGCTAG	0.157 z-score
ATACTGAGAAAGCACTGGACGTGCTAG	0.168 z-score
TCACATGTAAATAATCAGACTGTGCTA	0.00744 z-score

Set 4
Target: RNA binding protein fox-1 homolog 2, RRM domain, GST-SBP tag (RBFOX2, Homo sapiens, UniProt O43251-10, residues 100-194)
Method: RNA Bind-n-Seq
Molecule type: RNA
Matrix: in vitro
Tested at: 365 nM
Setting: natural RNA segment, single round, ends assumed
Relative to: no-protein control
Reading: higher = stronger binding
Constant ends, left off below: GGGAGUUCUACAGUCCGACGAUC … UGGAAUUCUCGGGUGCCAA
Residues (chain): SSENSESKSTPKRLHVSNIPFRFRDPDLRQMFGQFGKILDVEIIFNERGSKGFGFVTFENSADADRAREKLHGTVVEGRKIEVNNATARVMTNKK
Sequence	RBNS enrichment (R)
UUGUCCACAGACUGCUGGGGUCACUUCUUUGCCCACGGGCUCCCUGCUCCCCCAGUUUUUUUUCUCUCUUUGUUAACAAAUGUGUCUGAGUCUUGGAAAACACCCCAACC	2.19
ACAAAUAGUGUUAUUGGAAGGGAUGUGUAAUUUUUCUGUAUAGACAGGAGAAGAAAUAACUAUCUUUUCAUUUGGGAGAGGCUAAAGAUGUUUUCAGCUACUUGCAAAUC	0.408
AAGUUGCCAAUUUGCUAUAAAUCCCUUUUGCCAUCAGUCUGCUUACAGUGAUAUAUAUAGUGUUCUUAAAACGAUGUGUCUUGCUGCAGAAAUACUGAAAAAAUGCUGGU	0.426
GUUGUGUGCAGCUUUAGCGGCAUCAGGACAGCUUCCAGCUUGCAAUGAUUGCUGCUGACAGGAACACCUGGAUCUCAAGAGCUUUUUAUGACAGGUGGACAUCUGUGUCA	0.328
UUUAGUGAGACACUUCUGAGUACUUGCUUUUUCCUUUGACUUCUAACCAACUAAAAGAGAAGGAGGUCUUCAUGUUGAUAUUUUGCUUGGUUUUAUUUUACUGAUUUUAA	0.547
CCCCAGUAAGCCACUGCCACACGUCUGACCCUCUCCACCCCAUAGUGACCGGCUGCUUUUCCCUAAGCCAAGGGCCUCUUGCGGUCCCUUCUUACUCACACACAAAAUGU	0.415
GAACAAAACAACCGAAACCAAACAAACAAAAAAAUACAAGCAUUCUGUGGUGGGUGGCAUAACAAUAAAACUUACUAAGUGGUUAUAGGAUAAACAAACAGUUAUUAGGU	0.831
UCAGAUUUAUUUUUUAUUAAGCAUUAUACCAUGGGCUGUCCUGUGCUCCUGUCACUCUUCAAAAACACCCCUUCUAUUACUGCCUCCGGGGAUGAAGCAGUAGCUAGGUU	1.36

Repeated from above (set 4):
Sequence	RBNS enrichment (R)
GAACAAAACAACCGAAACCAAACAAACAAAAAAAUACAAGCAUUCUGUGGUGGGUGGCAUAACAAUAAAACUUACUAAGUGGUUAUAGGAUAAACAAACAGUUAUUAGGU	0.831
UCAGAUUUAUUUUUUAUUAAGCAUUAUACCAUGGGCUGUCCUGUGCUCCUGUCACUCUUCAAAAACACCCCUUCUAUUACUGCCUCCGGGGAUGAAGCAGUAGCUAGGUU	1.36
